Results of several laboratories.
A part holds a random share of what one study measured. Changes are numbered by the printed parent chain.

Study 1
Target: CRIPT, C-terminal peptide
Technique: DHFR complementation, deep sequencing
Matrix: yeast
Notes: single substitutions, model-inferred values
Relative to: wild type
Reading: higher = weaker binding
Endpoint: binding free energy change
Parent: ERBIN, PDZ domain 1 (human); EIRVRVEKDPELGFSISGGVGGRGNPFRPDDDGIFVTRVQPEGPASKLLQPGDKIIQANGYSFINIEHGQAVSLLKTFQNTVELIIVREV; partner TKNYKQTSV
K76S: 2.79 kJ/mol
D9S: -0.704 kJ/mol
L75M: 1.61 kJ/mol
S46W: -0.0373 kJ/mol
V39H: 2.43 kJ/mol
G22W: 2.86 kJ/mol
F63V: 0.695 kJ/mol
S62I: 0.603 kJ/mol
P10Y: -1.72 kJ/mol
Q50I: 0.133 kJ/mol
F35P: 4.75 kJ/mol
Y61W: 0.552 kJ/mol
I66Q: 1.16 kJ/mol
G13D: 4.4 kJ/mol
G24Q: 7.6 kJ/mol
I2E: 1.05 kJ/mol
L49N: 3.4 kJ/mol
F35K: 3.86 kJ/mol
S17Q: 3.84 kJ/mol
A58H: 7.21 kJ/mol
A58T: 1.23 kJ/mol
G18I: 5.61 kJ/mol
A71D: 4.71 kJ/mol
R88Y: 6.32 kJ/mol

Study 2
Target: RING finger protein unkempt homolog, zinc fingers 1-6, SBP tag (UNK, Homo sapiens, UniProt Q9C0B0, residues 30-357)
UniProt Q9C0B0, sequence (30-357, looked up): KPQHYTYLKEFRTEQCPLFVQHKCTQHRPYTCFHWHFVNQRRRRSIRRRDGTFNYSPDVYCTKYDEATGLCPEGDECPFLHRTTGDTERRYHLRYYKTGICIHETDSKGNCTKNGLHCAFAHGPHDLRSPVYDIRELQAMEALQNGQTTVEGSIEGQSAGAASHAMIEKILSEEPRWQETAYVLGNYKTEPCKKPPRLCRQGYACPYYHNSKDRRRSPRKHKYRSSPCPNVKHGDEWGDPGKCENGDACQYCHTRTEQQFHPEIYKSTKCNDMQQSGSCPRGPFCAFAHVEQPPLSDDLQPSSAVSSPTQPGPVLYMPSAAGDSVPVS
Technique: RNA Bind-n-Seq
Form: RNA
Matrix: in vitro
Tested at: 100 nM
Notes: RNA with constant flanks, vertebrate orthologous sites, ends assumed
Relative to: input RNA pool
Reading: higher = stronger binding
Endpoint: bound/input enrichment
Shared flanks, not repeated: GGGAGUUCUACAGUCCGACGAUC … CAACAGAGGAUUGAGCAUCA
CCUCUAAACCCCAUUUCUUCUGUUUCAUAGUGUAGAAGUAUUCUUUUUCAGUUAUAUUAUUAGUGGACUUGUUAUAAUUUUAGGGAAAAUUUCAGUACAGAUGCUGUGAGCUUACAUGGA: 1.28 ratio
AGCAGCUCAAGGAUUCAGAACUGGUUUUGCAAAUGCCCCAAGCAGAUAUGGAACAAACGCUCGUGGUCAGCCCCGACCGUAAUAAACACCAUUAUUUAUUAUACUUAAGGGUAUUGACUU: 0.289 ratio
GGGGAUGGGGGGUGGGUAAGGGAUGUGGAUGAUAGGAUGUUAUUGGGAUUUUUAAGUGUUCCGGAGUUUUGUUGUUCUUCCUGUUUUUCUUUUUGUUCUUCCCAUUAAUUAGAUGCACUG: 1.59 ratio
GGUUAAUGUGUUAUUUAUUGAGUAUAGUUUGUGCUAAGCAUUGUGUUCGAUUUAAAAAAUUAGUGGAUUGACUCCACUUUGUUGUGUUGUUUUCAUUGUUGAAAAUAAAUAUAACUUUGU: 0.335 ratio
UGUCUGCCUCAUUCUGAAAUGUACACAGUAGACCAUUUGUCAUCCAUGCUGUCCCACAAAUAGUUUUUUGUUUACGAUUUAUGACAGGUUUAUGUUACUUCUAUUUGAAUUUCUAUAUUU: 1.23 ratio
GCAUGAGCAUCUACCCGGGUUUAAAGACCCUCCCUGAUGAGGCUCUCCAUGUAUUUAUCCUGUUUACACCCCUGUCUGUGUGAUUGGCAGAGGAAGGUCAGGGGGGCUCCGUGUUGACAG: 0.312 ratio
GCUCUAGUUCUUAAAAACCAACACUCCUAAAAGAGUUAGAAAAAAGUUUACAACGUAAUCUAGUUUACGAAGAAGUCUUGUGCUAAAAUACUUUUGUAAAAGUAUUUUUGAAUACCAUUA: 0.589 ratio
AGCAGCGCCAGGAUUCAGGACUGGUUACACAAGCAUUCCAAGUAGACAUGGAAACAGCAGUAGAGUGGGGCAGCCCUAACCGUGAUGUACUGUAACUCAUUUUCAUGAAGAAUAUGGACG: 0.571 ratio
UAAAUACUGUGCAGGUGGCAUACCAGCAUAGGCAAAGCUUUCAAAGAGAAAAUAUCUUACAAAGCAUUUGUAAAGAUAUAUUUAAAGAAAAAAAGAAAUUGAAGAACUGAAACCCAAAGC: 0.501 ratio
CGGCGCCAUCUGCCGAGCGCAGUGCUCCGCGCCAGUGCCCUUCGUCCCUUCACACUGAACCUAGCUAUAGGAAUUUCAUAUUUUUAAAAGUUUUACAUUGCUGUAUAUUCAAAGAUUUGU: 0.357 ratio
AUAUUCAGUCAUGGAGAAAAACAUAUUAAAAUAACUUCAUGGCACUGAUGUUAGUUCUAUUAGUUUUAUAAAAGUUAGGAUUCUUACUUAGGAACAACAGAAAAUGACUGUUAAGGAGAA: 1.96 ratio

Study 3
Target: Histone acetyltransferase KAT6A, both winged helices, GST fusion (KAT6A, Homo sapiens, UniProt Q92794, residues 1-181)
Technique: protein binding microarray
Form: double-stranded DNA, one strand shown
Matrix: in vitro
Tested at: not given
Notes: 8-mer, flanks averaged, mean of 2 arrays, mostly near background
Relative to: not given
Reading: higher = stronger binding
Endpoint: E-score
Residues (chain): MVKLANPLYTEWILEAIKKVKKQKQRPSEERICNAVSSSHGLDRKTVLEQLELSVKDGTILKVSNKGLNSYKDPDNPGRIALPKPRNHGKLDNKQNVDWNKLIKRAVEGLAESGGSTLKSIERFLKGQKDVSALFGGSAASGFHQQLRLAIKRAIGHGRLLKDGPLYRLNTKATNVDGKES
CCAATAAC: -0.00737
AGGATTAG: -0.261
TAGGTAGA: -0.117
ATTTCGGG: -0.108
AAATAGGA: -0.146
TACCCACA: -0.154
AAAGATCA: 0.0115
AAAGTAAA: -0.145
AGGGACGC: -0.0245
AGATCCCA: -0.249
AAGGATTA: -0.172
CGCGCGAC: 0.4
CGCGGCGA: 0.371
TCACAGGA: -0.169
CAGATGAA: -0.167
CCTTTGGC: -0.169
ATCAAGAC: 0.00297
CGATGCAA: -0.0415
AGTCTTAG: -0.0684
ACGTGCGG: 0.0916
ACCGCTTC: 0.131
CCGCGATA: 0.256
AGTAATTG: -0.128
CTGTCGGC: 0.258
AGATGTCC: 0.0537

Study 4
Target: CCND1, cyclin fold, Cln2 fusion (human)
Technique: yeast growth competition, sequencing
Matrix: yeast
Notes: weak parent motif
Relative to: not given
Reading: higher = stronger binding
Endpoint: normalised enrichment score
Parent: EXO1 docking peptide (human); KPECGRVQRAIFQ; partner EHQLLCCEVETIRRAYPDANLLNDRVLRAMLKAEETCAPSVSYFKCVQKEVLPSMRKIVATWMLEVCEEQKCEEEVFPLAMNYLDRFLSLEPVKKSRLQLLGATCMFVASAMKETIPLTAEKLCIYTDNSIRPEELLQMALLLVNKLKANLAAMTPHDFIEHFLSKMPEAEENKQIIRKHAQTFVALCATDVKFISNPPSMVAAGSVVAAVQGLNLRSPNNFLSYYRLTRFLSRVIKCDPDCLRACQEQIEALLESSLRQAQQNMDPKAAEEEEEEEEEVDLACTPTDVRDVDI
APECGRVQRAIFQ [K1A]: -0.0914
KPECGRVARAIFQ [Q8A]: 0.46
KPECGRVQAAIFQ [R9A]: 0.00886
KPECGRVQRAIAQ [F12A]: 0.0967
KPECGRVQRAAFQ [I11A]: -0.00257
KAECGRVQRAIFQ [P2A]: 0.169

Study 5
Target: ABI1, truncated, D143A, DHFR fusion (Arabidopsis thaliana)
Technique: DHFR PCA, deep sequencing
Matrix: yeast
Notes: methotrexate growth selection, single substitutions
Together with: (+)-ABA 0 µM
Relative to: wild-type fitted maximum
Reading: higher = stronger binding
Endpoint: relative binding score
Parent: PYL1, truncated, DHFR fusion (Arabidopsis thaliana); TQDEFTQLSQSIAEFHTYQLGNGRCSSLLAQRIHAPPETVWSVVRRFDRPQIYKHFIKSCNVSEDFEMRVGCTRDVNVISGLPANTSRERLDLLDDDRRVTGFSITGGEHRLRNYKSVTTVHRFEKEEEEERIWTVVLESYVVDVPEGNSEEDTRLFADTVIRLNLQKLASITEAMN; partner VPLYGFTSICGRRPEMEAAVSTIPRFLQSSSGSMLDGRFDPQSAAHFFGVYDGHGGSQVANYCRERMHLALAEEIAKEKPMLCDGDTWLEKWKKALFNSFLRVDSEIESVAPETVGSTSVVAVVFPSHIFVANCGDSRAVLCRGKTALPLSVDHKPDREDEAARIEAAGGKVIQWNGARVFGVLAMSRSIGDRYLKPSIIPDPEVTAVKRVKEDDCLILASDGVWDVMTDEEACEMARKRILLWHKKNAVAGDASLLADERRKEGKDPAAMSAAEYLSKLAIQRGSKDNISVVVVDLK
C25G: 1.38%
R123T: 14.7%
S171E: 39.5%
R90T: 0.647%
I172N: -9.83%
V43N: -4.42%
R46D: -0.259%
C25P: 5.08%
R132W: 1.83%
L156P: 1.83%
V40A: -4.7%
D159P: -12.6%
V121F: -5.19%
P146T: 20.8%
W41H: 0.438%
L82Y: 48.4%

Study 6
Target: Hepatocyte nuclear factor 3-beta, forkhead domain (FOXA2, Homo sapiens, UniProt Q9Y261, residues 142-269)
Technique: protein-binding microarray
Form: double-stranded DNA, one strand shown
Matrix: in vitro
Tested at: not given
Notes: k-mer, scored over probes, only values ≥0.25
Reading: higher = stronger binding
Endpoint: E-score
Residues (chain): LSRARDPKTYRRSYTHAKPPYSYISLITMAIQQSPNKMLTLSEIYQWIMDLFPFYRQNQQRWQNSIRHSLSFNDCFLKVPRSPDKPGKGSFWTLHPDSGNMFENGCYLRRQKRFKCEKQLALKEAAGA
GTATATCA: 0.306
AATATCTA: 0.26
AACTACTA: 0.293
ACGTTATG: 0.259
ATATCACA: 0.292
AACGATAT: 0.349
ATTGTTTG: 0.331
AATATTAA: 0.279
GGAATACA: 0.365
ATTAACAC: 0.375
ACCATACT: 0.259
TACTAACA: 0.301
ACATTATA: 0.337
ATCTTGCA: 0.286
TACAATGA: 0.258
GAAATACA: 0.261
TCATATGA: 0.275
TAATAATA: 0.275
AAATAGAC: 0.303
ACAATACC: 0.343
CTATGTAC: 0.286
ATTGTATA: 0.352
TAGCATCA: 0.281
ATGACACA: 0.256
AATCATCA: 0.273

Study 7
Target: CREBZF, bZIP domain (human)
Technique: DHFR protein complementation
Matrix: yeast
Notes: single substitutions, most at no-binding floor
Relative to: wild-type JUN-FOS pair
Reading: higher = stronger binding
Endpoint: binding fitness
Parent: JUN, bZIP domain (human); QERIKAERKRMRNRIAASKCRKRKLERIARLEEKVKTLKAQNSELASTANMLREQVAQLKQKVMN; partner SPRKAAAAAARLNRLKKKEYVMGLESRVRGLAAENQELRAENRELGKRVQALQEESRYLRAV
V35P: -1.51 natural log
S47I: -1.41 natural log
V35G: -1.5 natural log
S47P: -1.51 natural log
L31W: -1.49 natural log
V35R: -1.47 natural log
V56R: -1.36 natural log
E33S: -1.32 natural log
E32D: -1.58 natural log
T48P: -1.5 natural log
I28W: -1.5 natural log
V35C: -1.49 natural log
S43C: -1.46 natural log
A40H: -1.47 natural log
L31V: -1.41 natural log
Q58S: -1.41 natural log
K36E: -1.42 natural log

Further values, each from its own experiment
PhoQ, residues 284 288 289 292 302 303 SCKMEA  fold induction (PhoP, residues 12 14 15 18 19 VHTVL (Escherichia coli, UniProt P23836); Sort-seq, measured: YFP reporter; E. coli; PhoQ-PhoP variant library, together with: 10 µM Mg2+; relative to: high Mg2+ state, higher = stronger signaling): 6.34

For quick reference, copied from above (study 1):
G22W: 2.86 kJ/mol
F63V: 0.695 kJ/mol
S62I: 0.603 kJ/mol
P10Y: -1.72 kJ/mol
Q50I: 0.133 kJ/mol
F35P: 4.75 kJ/mol
Y61W: 0.552 kJ/mol
I66Q: 1.16 kJ/mol
G13D: 4.4 kJ/mol
G24Q: 7.6 kJ/mol
I2E: 1.05 kJ/mol
L49N: 3.4 kJ/mol
F35K: 3.86 kJ/mol
S17Q: 3.84 kJ/mol
A58H: 7.21 kJ/mol
A58T: 1.23 kJ/mol
G18I: 5.61 kJ/mol
A71D: 4.71 kJ/mol
R88Y: 6.32 kJ/mol
